Assay results gathered from unrelated publications.
Every numbered part comes from another study and shows a few of its results, in no order. Values joined by “and” are separate records of one study, mostly repeats; a detail may differ.
Sequence of UniProt Q96PY6 (whole entry, looked up): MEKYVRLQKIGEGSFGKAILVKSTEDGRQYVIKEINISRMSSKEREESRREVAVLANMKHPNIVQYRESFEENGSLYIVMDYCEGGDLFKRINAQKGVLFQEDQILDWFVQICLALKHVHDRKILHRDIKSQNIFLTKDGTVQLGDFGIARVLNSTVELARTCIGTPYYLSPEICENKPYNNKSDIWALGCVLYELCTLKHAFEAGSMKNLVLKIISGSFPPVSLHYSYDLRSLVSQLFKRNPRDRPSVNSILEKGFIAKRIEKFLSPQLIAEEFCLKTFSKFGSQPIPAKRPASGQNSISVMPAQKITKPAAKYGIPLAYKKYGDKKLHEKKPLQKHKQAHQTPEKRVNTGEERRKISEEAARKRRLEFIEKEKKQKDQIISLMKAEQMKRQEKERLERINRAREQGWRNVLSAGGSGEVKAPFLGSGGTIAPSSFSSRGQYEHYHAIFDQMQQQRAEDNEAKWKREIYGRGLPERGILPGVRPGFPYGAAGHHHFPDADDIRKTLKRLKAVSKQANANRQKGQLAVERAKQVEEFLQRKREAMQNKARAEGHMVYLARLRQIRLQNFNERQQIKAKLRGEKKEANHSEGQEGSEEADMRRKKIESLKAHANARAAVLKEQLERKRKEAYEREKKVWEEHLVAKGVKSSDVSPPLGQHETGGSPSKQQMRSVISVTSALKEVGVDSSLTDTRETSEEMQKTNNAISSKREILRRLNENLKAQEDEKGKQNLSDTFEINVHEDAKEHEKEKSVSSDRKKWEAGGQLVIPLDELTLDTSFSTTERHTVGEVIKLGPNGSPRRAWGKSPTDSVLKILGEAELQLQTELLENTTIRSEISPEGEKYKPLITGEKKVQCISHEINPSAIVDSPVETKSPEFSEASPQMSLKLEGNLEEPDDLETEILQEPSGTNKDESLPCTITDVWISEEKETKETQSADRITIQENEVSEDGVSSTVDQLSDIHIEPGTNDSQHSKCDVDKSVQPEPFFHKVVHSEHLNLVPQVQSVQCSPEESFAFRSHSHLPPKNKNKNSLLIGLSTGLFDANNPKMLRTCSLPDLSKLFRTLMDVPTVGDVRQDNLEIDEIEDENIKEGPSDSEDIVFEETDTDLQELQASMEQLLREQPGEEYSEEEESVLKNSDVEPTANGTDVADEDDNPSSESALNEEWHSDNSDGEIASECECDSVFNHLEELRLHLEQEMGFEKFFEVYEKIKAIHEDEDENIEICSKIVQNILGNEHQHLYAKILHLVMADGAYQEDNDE
Sequence of UniProt Q00537 (whole entry, looked up): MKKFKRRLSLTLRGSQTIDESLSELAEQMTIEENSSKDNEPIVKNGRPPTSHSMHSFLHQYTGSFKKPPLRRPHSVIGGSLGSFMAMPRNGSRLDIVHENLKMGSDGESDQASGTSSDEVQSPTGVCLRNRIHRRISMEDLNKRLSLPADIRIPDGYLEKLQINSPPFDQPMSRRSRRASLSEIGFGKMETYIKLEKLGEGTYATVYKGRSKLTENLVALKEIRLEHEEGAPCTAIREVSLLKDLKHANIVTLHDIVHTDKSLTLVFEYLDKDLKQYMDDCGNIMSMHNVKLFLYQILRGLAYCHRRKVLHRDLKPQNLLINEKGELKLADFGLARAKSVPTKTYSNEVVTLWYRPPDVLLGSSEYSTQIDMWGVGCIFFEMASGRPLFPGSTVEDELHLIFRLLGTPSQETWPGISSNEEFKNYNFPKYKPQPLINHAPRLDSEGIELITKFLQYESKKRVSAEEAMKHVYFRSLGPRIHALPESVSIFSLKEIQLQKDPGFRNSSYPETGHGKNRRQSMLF
Sequence of UniProt Q13177 (whole entry, looked up): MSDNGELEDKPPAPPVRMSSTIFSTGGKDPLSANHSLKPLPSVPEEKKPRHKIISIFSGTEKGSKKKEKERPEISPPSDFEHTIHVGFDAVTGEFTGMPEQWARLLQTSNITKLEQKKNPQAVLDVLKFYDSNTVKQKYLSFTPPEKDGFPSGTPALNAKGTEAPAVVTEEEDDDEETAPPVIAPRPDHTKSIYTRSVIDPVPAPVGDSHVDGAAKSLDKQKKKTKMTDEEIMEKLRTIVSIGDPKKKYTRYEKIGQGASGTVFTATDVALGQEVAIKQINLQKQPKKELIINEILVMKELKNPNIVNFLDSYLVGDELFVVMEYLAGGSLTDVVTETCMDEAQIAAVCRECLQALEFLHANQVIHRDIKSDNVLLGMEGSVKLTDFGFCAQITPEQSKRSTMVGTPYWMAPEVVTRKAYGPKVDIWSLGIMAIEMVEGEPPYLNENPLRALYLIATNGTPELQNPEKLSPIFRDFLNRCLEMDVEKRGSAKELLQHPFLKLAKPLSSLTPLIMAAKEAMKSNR
Sequence of UniProt P31749 (whole entry, looked up): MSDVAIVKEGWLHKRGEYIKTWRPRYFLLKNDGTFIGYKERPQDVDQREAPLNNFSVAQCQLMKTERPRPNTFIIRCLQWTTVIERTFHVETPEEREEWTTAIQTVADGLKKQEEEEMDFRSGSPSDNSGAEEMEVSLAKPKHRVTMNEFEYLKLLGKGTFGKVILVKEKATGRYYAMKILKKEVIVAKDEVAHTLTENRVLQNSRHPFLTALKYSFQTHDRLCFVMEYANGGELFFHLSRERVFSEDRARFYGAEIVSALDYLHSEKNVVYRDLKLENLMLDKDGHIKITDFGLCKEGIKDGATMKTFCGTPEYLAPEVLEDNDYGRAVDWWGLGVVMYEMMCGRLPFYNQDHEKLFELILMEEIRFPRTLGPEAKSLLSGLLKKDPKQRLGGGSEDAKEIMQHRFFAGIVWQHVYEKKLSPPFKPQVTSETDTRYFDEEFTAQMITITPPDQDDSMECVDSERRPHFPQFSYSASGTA
Sequence of UniProt Q9H0K1 (whole entry, looked up): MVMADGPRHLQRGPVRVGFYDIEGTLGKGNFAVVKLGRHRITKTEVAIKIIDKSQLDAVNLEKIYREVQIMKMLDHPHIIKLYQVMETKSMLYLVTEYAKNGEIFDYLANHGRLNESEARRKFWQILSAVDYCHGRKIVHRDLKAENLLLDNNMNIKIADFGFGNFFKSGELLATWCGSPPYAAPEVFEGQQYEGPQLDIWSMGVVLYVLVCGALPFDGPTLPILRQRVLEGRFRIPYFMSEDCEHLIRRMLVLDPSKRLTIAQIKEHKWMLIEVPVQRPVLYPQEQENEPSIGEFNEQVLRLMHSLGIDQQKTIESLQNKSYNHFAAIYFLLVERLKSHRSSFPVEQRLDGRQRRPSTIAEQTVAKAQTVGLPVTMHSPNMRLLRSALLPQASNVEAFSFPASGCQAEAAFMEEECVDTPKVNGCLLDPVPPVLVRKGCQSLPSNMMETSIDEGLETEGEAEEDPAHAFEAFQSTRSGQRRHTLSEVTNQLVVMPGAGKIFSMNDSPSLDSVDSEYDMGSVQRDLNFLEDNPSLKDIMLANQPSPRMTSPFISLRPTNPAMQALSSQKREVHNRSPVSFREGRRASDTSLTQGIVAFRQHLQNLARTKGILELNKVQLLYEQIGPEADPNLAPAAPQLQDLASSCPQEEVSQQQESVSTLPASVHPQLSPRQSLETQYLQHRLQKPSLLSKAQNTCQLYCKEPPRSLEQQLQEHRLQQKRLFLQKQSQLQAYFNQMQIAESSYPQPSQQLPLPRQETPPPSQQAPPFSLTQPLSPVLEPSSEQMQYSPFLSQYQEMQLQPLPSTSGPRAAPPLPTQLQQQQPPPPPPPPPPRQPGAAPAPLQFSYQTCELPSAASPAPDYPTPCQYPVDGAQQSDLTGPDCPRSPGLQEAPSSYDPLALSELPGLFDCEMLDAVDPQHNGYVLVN
Sequence of UniProt P29597 (whole entry, looked up): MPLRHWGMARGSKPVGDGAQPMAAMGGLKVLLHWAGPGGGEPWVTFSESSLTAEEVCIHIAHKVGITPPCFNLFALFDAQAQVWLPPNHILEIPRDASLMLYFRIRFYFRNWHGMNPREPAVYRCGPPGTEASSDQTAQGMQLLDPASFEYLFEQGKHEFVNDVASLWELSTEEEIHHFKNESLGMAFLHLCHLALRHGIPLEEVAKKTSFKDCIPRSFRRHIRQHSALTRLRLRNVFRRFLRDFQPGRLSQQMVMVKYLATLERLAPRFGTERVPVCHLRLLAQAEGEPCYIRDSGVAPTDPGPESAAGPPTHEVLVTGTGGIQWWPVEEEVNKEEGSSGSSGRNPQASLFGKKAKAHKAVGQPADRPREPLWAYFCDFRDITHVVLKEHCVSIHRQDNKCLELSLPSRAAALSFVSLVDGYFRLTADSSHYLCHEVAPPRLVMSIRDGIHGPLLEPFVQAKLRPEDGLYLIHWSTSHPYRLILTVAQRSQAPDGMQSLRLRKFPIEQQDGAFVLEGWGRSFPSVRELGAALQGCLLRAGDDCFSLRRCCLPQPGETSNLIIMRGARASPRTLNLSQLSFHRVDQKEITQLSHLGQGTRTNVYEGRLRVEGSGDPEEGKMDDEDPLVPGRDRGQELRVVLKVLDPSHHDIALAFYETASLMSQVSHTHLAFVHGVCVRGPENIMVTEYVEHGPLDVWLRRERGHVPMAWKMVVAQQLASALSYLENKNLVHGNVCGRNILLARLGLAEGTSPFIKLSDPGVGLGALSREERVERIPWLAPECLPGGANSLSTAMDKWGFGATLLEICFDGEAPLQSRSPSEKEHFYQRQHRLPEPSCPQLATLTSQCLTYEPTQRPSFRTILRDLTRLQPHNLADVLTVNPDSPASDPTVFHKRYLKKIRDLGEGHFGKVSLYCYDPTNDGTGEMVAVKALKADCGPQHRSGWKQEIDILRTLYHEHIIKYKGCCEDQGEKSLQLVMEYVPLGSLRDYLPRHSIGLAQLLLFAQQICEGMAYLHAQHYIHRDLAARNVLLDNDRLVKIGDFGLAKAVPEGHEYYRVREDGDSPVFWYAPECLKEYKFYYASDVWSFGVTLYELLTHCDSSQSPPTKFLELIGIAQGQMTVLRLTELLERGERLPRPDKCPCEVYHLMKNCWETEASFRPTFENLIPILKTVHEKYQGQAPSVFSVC

Sample 1 — method: competition with immobilised ligand; concentration: 1 µM
Compound: N#CC1(c2ccccn2)CCN(Cc2cc(C(=O)O)c(=O)n3ccccc23)CC1
MAPK4 (Homo sapiens, UniProt P31152); cell-free assay — remaining binding: 100%.
It gave 100% for remaining binding (SIK2 (Homo sapiens, UniProt Q9H0K1); cell-free assay).
TEC (Homo sapiens, UniProt P42680); binding — remaining binding: 100%.
For DDR1 (Homo sapiens, UniProt Q08345); cell-free assay: remaining binding read 100%.
The remaining binding was 100% (LIM domain kinase 2 (LIMK2, Homo sapiens, UniProt P53671); cell-free assay).
Ribosomal protein S6 kinase alpha-2, N-terminal kinase domain (RPS6KA2, Homo sapiens, UniProt Q15349); cell-free assay — remaining binding: 100%.
It gave 100% for remaining binding (NEK1 (Homo sapiens, UniProt Q96PY6); cell-free assay).
It gave 100% for remaining binding (FLT3 (Homo sapiens, UniProt P36888, R834Q); cell-free assay).
HIPK1 (Homo sapiens, UniProt Q86Z02); cell-free assay — remaining binding: 100%.
It gave 100% for remaining binding (TAOK1 (Homo sapiens, UniProt Q7L7X3); cell-free assay).
It gave 88% for remaining binding (pknB (Mycobacterium tuberculosis, UniProt P9WI81); cell-free assay).
The remaining binding was 100% (AKT1 (Homo sapiens, UniProt P31749); cell-free assay).
It gave 88% for remaining binding (CDPK1 (Plasmodium falciparum, UniProt P62344); cell-free assay).
TRPM6 (Homo sapiens, UniProt Q9BX84); cell-free assay — remaining binding: 100%.
The remaining binding was 99% (Non-receptor tyrosine-protein kinase TYK2, JH1 (TYK2, Homo sapiens, UniProt P29597); cell-free assay).
For Tyrosine-protein kinase ABL1, phosphorylated (ABL1, Homo sapiens, UniProt P00519); cell-free assay: remaining binding read 100%.
The remaining binding was 100% (TIE1 (Homo sapiens, UniProt P35590); cell-free assay).
It gave 100% for remaining binding (CDK15 (Homo sapiens, UniProt Q96Q40); cell-free assay).
PAK2 (Homo sapiens, UniProt Q13177); cell-free assay — remaining binding: 77%.
NUAK2 (Homo sapiens, UniProt Q9H093); cell-free assay — remaining binding: 77%.
The remaining binding was 96% (MET (Homo sapiens, UniProt P08581, M1250T); cell-free assay).
For CDK17 (Homo sapiens, UniProt Q00537); cell-free assay: remaining binding read 96%.

Sample 2 — cell line: mouse MPNST tumor cells; method: high-content nuclear imaging; item: cell number; concentration: 10 µM; time: 12 h; setting: mean of 2 replicates; relative to: plate mean; reading: higher = more cells
`CC[C@H]1CN2CC[C@H]1C[C@@H]2[C@@H](O)c1ccnc2ccc(OC)cc12` has a nuclei count of 4.03 z-score.
For `O=C1CCCN1CC#CCN1CCCC1`, the nuclei count was 0.633 z-score.
For `CN1C2C=C(c3sccc3Br)CC1CC2` (stereo not shown), the nuclei count was 1.1 z-score.
`COc1ccc2c(c1)/C(=C/c1cnc[nH]1)C(=O)N2` has a nuclei count of -1.36 z-score.
`Cc1cc2c(cc1-c1cc(/C=C/C(=O)O)ccc1O)C(C)(C)CCC2(C)C` gave a nuclei count of 0.397 z-score.
`Cc1cc2c(C(C)C)c(O)c(O)c(C=O)c2c(O)c1-c1c(C)cc2c(C(C)C)c(O)c(O)c(C=O)c2c1O` gave a nuclei count of -0.485 z-score.
`COc1cc(Br)c(OC)c2c1C(CN)C2` (stereo not shown) has a nuclei count of 1.99 z-score.

Sample 3 — cell line: HEK-293T; observed: pseudovirus infection; method: FDA-approved drug library counter-screen; organism: VSV pseudotyped with VSV-G; concentration: 10 µM; time: 16 h; relative to: vehicle-treated
With `COc1cc(C)c(/C=C/C(C)=C/C=C/C(C)=C/C(=O)O)c(C)c1C` the GFP-positive cells was 128%.
`COCCCOc1cc(C[C@@H](C[C@H](N)[C@@H](O)C[C@H](C(=O)NCC(C)(C)C(N)=O)C(C)C)C(C)C)ccc1OC` has a GFP-positive cells of 83.3%.
The GFP-positive cells of `C[C@]12CCC(=O)C=C1CC[C@@H]1[C@@H]2CC[C@@]2(C)[C@H]1CC[C@]2(C)O` is reported as 96.3%.
`O=P(O)(O)C(O)(Cn1ccnc1)P(=O)(O)O` gave a GFP-positive cells of 108%.
With `CC1=C(C/C=C(\C)CCC[C@H](C)CCC[C@H](C)CCCC(C)C)C(=O)c2ccccc2C1=O` the GFP-positive cells was 121%.
For `COC1=CC(=O)C[C@@H](C)[C@]12Oc1c(Cl)c(OC)cc(OC)c1C2=O`, the GFP-positive cells was 81.2%.
`Nc1nc(NC2CC2)c2ncn([C@H]3C=C[C@@H](CO)C3)c2n1` gave a GFP-positive cells of 112%.
`Cc1ccc(Cl)c(Nc2ccccc2C(=O)O)c1Cl` has a GFP-positive cells of 74.3%.
`CN1C(=O)OC(C)(C)C1=O` gave a GFP-positive cells of 89.4%.
With `CC[C@@H]([C@H](C)O)n1ncn(-c2ccc(N3CCN(c4ccc(OC[C@@H]5CO[C@@](Cn6cncn6)(c6ccc(F)cc6F)C5)cc4)CC3)cc2)c1=O` the GFP-positive cells was 146%.
With `CC1(C)S[C@@H]2[C@H](NC(=O)[C@H](N)c3ccccc3)C(=O)N2[C@H]1C(=O)O` the GFP-positive cells was 90.5%.
The GFP-positive cells of `C[C@H](CCC(=O)O)[C@H]1CC[C@H]2[C@@H]3[C@@H](O)C[C@@H]4C[C@H](O)CC[C@]4(C)[C@H]3CC[C@]12C` is reported as 118%.
The GFP-positive cells of `CN(C)/N=N/c1[nH]cnc1C(N)=O` is reported as 107%.
`OCCN1C[C@H](O)[C@@H](O)[C@H](O)[C@H]1CO` has a GFP-positive cells of 95%.
`Cc1cn([C@@H]2C[C@@H](O)[C@H](CO)O2)c(=O)[nH]c1=O` has a GFP-positive cells of 110%.
The GFP-positive cells of `CN(C)c1ccc(C(=C2C=CC(=[N+](C)C)C=C2)c2ccc(N(C)C)cc2)cc1` is reported as 15.1%.
The GFP-positive cells of `Nc1ccc(S(=O)(=O)Nc2nccs2)cc1` is reported as 98.6%.
`CC(C)C(=O)Oc1ccc(CO)cc1[C@H](CCN(C(C)C)C(C)C)c1ccccc1` has a GFP-positive cells of 111%.
`CC[C@@H](CO)NCCN[C@@H](CC)CO` gave a GFP-positive cells of 91.5%.

Sample 4 — organism: Cryptosporidium parvum; species: neonatal calves; dose: dose not given
Structure (SMILES): CNC(=O)c1ccc(-c2cnn3ccc(C(=O)N(C)c4ccc(Cl)c(C(=O)OC)c4)cc23)cc1
It gave 21 oocysts/g feces and 0 oocysts/g feces for “fecal oocyst count” (qPCR; day 13 post-treatment).
For day 5 post-treatment: “fecal oocyst count” read 129 oocysts/g feces and 2220 oocysts/g feces and 61 oocysts/g feces and 218 oocysts/g feces and 225 oocysts/g feces and 5710 oocysts/g feces and 10800 oocysts/g feces.
It gave 3340 oocysts/g feces and 23000 oocysts/g feces and 73800 oocysts/g feces and 1360 oocysts/g feces and 1930 oocysts/g feces and 4300 oocysts/g feces and 51800 oocysts/g feces for “fecal oocyst count” (qPCR; day 1 post-treatment).
For qPCR; day 6 post-treatment: “fecal oocyst count” read 473 oocysts/g feces and 36 oocysts/g feces and 2120 oocysts/g feces and 82 oocysts/g feces and 0 oocysts/g feces and 354 oocysts/g feces.
For qPCR; day 4 post-treatment: “fecal oocyst count” read 18000 oocysts/g feces and 54 oocysts/g feces and 1550 oocysts/g feces and 1160 oocysts/g feces.
It gave 23000 oocysts/g feces and 1360 oocysts/g feces and 73800 oocysts/g feces and 51800 oocysts/g feces and 3340 oocysts/g feces and 4300 oocysts/g feces and 1930 oocysts/g feces for “fecal oocyst count” (day 1 post-treatment).
The “fecal oocyst count” was 49 oocysts/g feces and 0 oocysts/g feces and 127 oocysts/g feces and 18 oocysts/g feces and 188 oocysts/g feces (qPCR; day 8 post-treatment).

Excerpt of the above (sample 4):
It gave 3340 oocysts/g feces and 23000 oocysts/g feces and 73800 oocysts/g feces and 1360 oocysts/g feces and 1930 oocysts/g feces and 4300 oocysts/g feces and 51800 oocysts/g feces for “fecal oocyst count” (qPCR; day 1 post-treatment).
It gave 23000 oocysts/g feces and 1360 oocysts/g feces and 73800 oocysts/g feces and 51800 oocysts/g feces and 3340 oocysts/g feces and 4300 oocysts/g feces and 1930 oocysts/g feces for “fecal oocyst count” (day 1 post-treatment).
For day 5 post-treatment: “fecal oocyst count” read 129 oocysts/g feces and 2220 oocysts/g feces and 61 oocysts/g feces and 218 oocysts/g feces and 225 oocysts/g feces and 5710 oocysts/g feces and 10800 oocysts/g feces.
For qPCR; day 6 post-treatment: “fecal oocyst count” read 473 oocysts/g feces and 36 oocysts/g feces and 2120 oocysts/g feces and 82 oocysts/g feces and 0 oocysts/g feces and 354 oocysts/g feces.
The “fecal oocyst count” was 49 oocysts/g feces and 0 oocysts/g feces and 127 oocysts/g feces and 18 oocysts/g feces and 188 oocysts/g feces (qPCR; day 8 post-treatment).
It gave 21 oocysts/g feces and 0 oocysts/g feces for “fecal oocyst count” (qPCR; day 13 post-treatment).
